Results from different studies.
Each line is one published result; not all experiments were run side by side. Several values in a cell are separate wells, animals, samples, runs or records.
Cell line: A2780

Compound	test	setting	how to read	endpoint	result
COc1ccc2nc(Cl)c(C=C3C(=O)Nc4ccccc43)cc2c1	cell growth or viability, MTT	72 h	–	IC50	> 100 µM
CC1(C)CC(C)(C)c2cc(N/C(S)=N/c3ccc([N+](=O)[O-])cc3)ccc2S1	measured: cyclin D1	24 h	decrease	EC50	4 to 5 µM
O=C1Nc2ccccc2C1=Cc1cc2ccc3ccccc3c2nc1Cl	cell growth or viability, MTT	72 h	–	IC50	> 100 µM
CCOc1ccc2cc(C3CC(c4ccc(Br)cc4)=NN3C(=O)CCC(=O)O)c(Cl)nc2c1 (stereo not shown)	colony formation	48 h	–	IC50	> 50 µM and 55 µM
CCN(CC)CCNC(=O)c1c(C)[nH]c(/C=C2\C(=O)Nc3ccc(F)cc32)c1C	AKT Ser473 phosphorylation, inhibitor, measured: phospho-AKT Ser473	with: PDGF	–	IC50	0.0169 µM
COc1cc2c(cc1O)CC[C@@H]1[C@@H]2CC[C@]2(C)[C@@H](O)CC[C@@H]12	cell growth or viability, MTT	48 h	–	IC50	0.59 µM
CNC(=O)c1cc(Oc2ccc(NC(=O)Nc3ccc(Cl)c(C(F)(F)F)c3)cc2)ccn1	AKT Ser473 phosphorylation, inhibitor, measured: phospho-AKT Ser473	with: PDGF	–	IC50	1.33 µM
O=C1Nc2ccccc2C1=Cc1cc2cc(Cl)ccc2nc1Cl	cell growth or viability, MTT	72 h	–	IC50	7.7 µM
CCc1cc(Nc2nccc(-c3c(-c4ccc(OC)c(C(=O)Nc5c(F)cccc5F)c4)nc4ccccn34)n2)c(OC)cc1N1CCC(N2CCN(S(C)(=O)=O)CC2)CC1	cell proliferation, resazurin	72 h	–	EC50	> 25 µM
O=C1Nc2ccccc2C1=Cc1cc2ccc(Cl)cc2nc1Cl	cell growth or viability, MTT	72 h	–	IC50	22.7 µM
CC(C)=CCC1=C(O)C(=O)c2ccccc2C1=O	cell growth or viability, MTT	48 h	–	IC50	> 50 µM
COc1cc2cc(C=C3C(=O)Nc4ccccc43)c(Cl)nc2cc1OC	cell growth or viability, MTT	72 h	–	IC50	> 100 µM
C=CCN(/C=C1/C(=O)O[C@H](COC)[C@@]2(C)C1=C(O)C(=O)C1=C2[C@H](OC(C)=O)C[C@]2(C)C(=O)CC[C@@H]12)CC=C	cell proliferation, resazurin	72 h	–	EC50	> 25 µM
c1ccc(P(=NCc2ccccn2)(c2ccccc2)c2ccccc2)cc1	cell growth or viability, MTT	74 h	–	IC50	> 100 µM
CC[PH](CC)(CC)[Au][S][C@@H]1O[C@H](COC(C)=O)[C@@H](OC(C)=O)[C@H](OC(C)=O)[C@H]1OC(C)=O	cell growth or viability, MTT	–	–	IC50	1.1 µM
Fc1ccc(CNc2ncnc3ccc(F)cc23)cc1	cell proliferation, resazurin	72 h	–	EC50	> 25 µM

Repeated from above:
Compound	test	setting	how to read	endpoint	result
CNC(=O)c1cc(Oc2ccc(NC(=O)Nc3ccc(Cl)c(C(F)(F)F)c3)cc2)ccn1	AKT Ser473 phosphorylation, inhibitor, measured: phospho-AKT Ser473	with: PDGF	–	IC50	1.33 µM
O=C1Nc2ccccc2C1=Cc1cc2cc(Cl)ccc2nc1Cl	cell growth or viability, MTT	72 h	–	IC50	7.7 µM
